{"data": "Experimental data gathered from unrelated publications", "note": "Values joined by “and” are separate records of one study, mostly repeats; a detail may differ. ± gives the spread as reported."}
{"SMILES": "CN1CCC[C@]1(C)/C=C/S(=O)(=O)NC(=O)Nc1c2c(cc3c1CCC3)CCC2", "test": "IL-18 release", "system": "human, whole blood ex vivo", "conditions": "oral, 12.5 mg twice daily, day 14, 336 h, multiple ascending dose, together with: LPS and ATP", "endpoint": "inhibition", "value": "86.8%"}
{"SMILES": "COC1OC(C)C(OS(=O)(=O)O)C(OC2OC(C)C(OS(=O)(=O)O)C(OC3OC(C)C(OS(=O)(=O)O)C(OC4OC(C)C(OS(=O)(=O)O)C(OC5OC(C)C(OS(=O)(=O)O)C(OC6OC(C)C(OS(=O)(=O)O)C(OC7OC(C)C(OS(=O)(=O)O)C(OC8OC(C)C(OS(=O)(=O)O)C(OS(=O)(=O)O)C8OS(=O)(=O)O)C7OS(=O)(=O)O)C6OS(=O)(=O)O)C5OS(=O)(=O)O)C4OS(=O)(=O)O)C3OS(=O)(=O)O)C2OS(=O)(=O)O)C1OS(=O)(=O)O (stereo not drawn)", "system": "human plasma", "conditions": "32 µg/mL", "endpoint": "activated partial thromboplastin time", "value": "119 s and 117 s and 113 s"}
{"SMILES": "COc1cc(O)ccc1CCC(c1ccc(O)cc1)c1cc2c(c(C)c1O)OC(c1ccc(O)cc1)CC2 (mixture of isomers)", "test": "measured: RvD5", "system": "human whole blood", "conditions": "30 µM, together with: Escherichia coli", "endpoint": "amount", "value": "6 ± 2 pg/mL blood"}
{"SMILES": "COc1cc2c(NC3CCN(C(C)C)CC3)cc(N3CCOCC3)nc2cc1OCCCN1CCCC1", "test": "TMT proteomics, measured: MDH1", "system": "5xFAD mice, hippocampus", "conditions": "dose not given, unit not given", "how to read": "relative to: untreated 5xFAD", "endpoint": "protein level difference", "value": 0.0856}
{"SMILES": "COC1OC(C)C(OS(=O)(=O)O)C(OC2OC(C)C(OS(=O)(=O)O)C(OC3OC(C)C(OS(=O)(=O)O)C(OC4OC(C)C(OS(=O)(=O)O)C(OC5OC(C)C(OS(=O)(=O)O)C(OS(=O)(=O)O)C5OS(=O)(=O)O)C4OS(=O)(=O)O)C3OS(=O)(=O)O)C2OS(=O)(=O)O)C1OS(=O)(=O)O (stereo not drawn)", "system": "human plasma", "conditions": "64 µg/mL", "endpoint": "activated partial thromboplastin time", "value": "92.4 s and 92.6 s and 94.3 s"}
{"SMILES": "COC1CN([C@H]2CC[C@H]([C@@]3(C)Oc4c(Cl)cc(C(=O)NCc5c(SC)cc(C)[nH]c5=O)c(C)c4O3)CC2)C1", "test": "RNA-seq, measured: TRIM36 mouse homolog", "system": "mouse, HT-1376 xenograft, whole blood", "conditions": "dose not given", "how to read": "relative to: vehicle", "endpoint": "log2 fold change", "value": 0.141}
{"SMILES": "COC1OC(C)C(OS(=O)(=O)O)C(OC2OC(C)C(OS(=O)(=O)O)C(OC3OC(C)C(OS(=O)(=O)O)C(OC4OC(C)C(OS(=O)(=O)O)C(OC5OC(C)C(OS(=O)(=O)O)C(OC6OC(C)C(OS(=O)(=O)O)C(OC7OC(C)C(OS(=O)(=O)O)C(OS(=O)(=O)O)C7OS(=O)(=O)O)C6OS(=O)(=O)O)C5OS(=O)(=O)O)C4OS(=O)(=O)O)C3OS(=O)(=O)O)C2OS(=O)(=O)O)C1OS(=O)(=O)O (stereo not drawn)", "system": "human plasma", "conditions": "16 µg/mL", "endpoint": "activated partial thromboplastin time", "value": "59.3 s and 57.5 s and 58.3 s"}
{"SMILES": "CC(=O)N1c2ccc(-c3ccc(CNC(=O)c4cn5cc(-c6cnc(N)nc6)nc(N6CCOCC6)c5n4)cc3)cc2CC[C@@H]1C", "system": "mouse, Vk*MYC myeloma transplant", "conditions": "dose not given, 18 d", "how to read": "relative to: mice", "endpoint": "paraprotein response", "value": "81%"}
{"SMILES": "CCCCCc1ccc(S(=O)(=O)N2CC2C(=O)OC)cc1 (stereo not drawn)", "system": "mouse, Lewis lung carcinoma", "conditions": "intraperitoneal, 5 mg/kg, 16 doses, day 14", "endpoint": "tumour growth inhibition", "value": "69%"}
{"SMILES": "NC[C@@H](C(=O)Nc1ccc(-c2cn[nH]c2)cc1)c1ccccc1", "test": "tonometry", "system": "NZW rabbit, magnetic bead-induced ocular hypertension", "conditions": "ocular, 0.03%, 30 h", "endpoint": "IOP", "value": "30.3 mmHg"}
{"SMILES": "COC1OC(C)C(OC2OC(C)C(O)C(OC3OC(C)C(OC4OC(C)C(O)C(OC5OC(C)C(OC6OC(C)C(O)C(OC7OC(C)C(OC8OC(C)C(O)C(OS(=O)(=O)O)C8OS(=O)(=O)O)C(OS(=O)(=O)O)C7OS(=O)(=O)O)C6OS(=O)(=O)O)C(OS(=O)(=O)O)C5OS(=O)(=O)O)C4OS(=O)(=O)O)C(OS(=O)(=O)O)C3OS(=O)(=O)O)C2OS(=O)(=O)O)C(OS(=O)(=O)O)C1OS(=O)(=O)O (stereo not drawn)", "system": "human plasma", "conditions": "16 µg/mL", "endpoint": "activated partial thromboplastin time", "value": "67 s and 68.4 s and 69.4 s"}
{"SMILES": "CC(=O)[O-].O.[Cu+2].[O-]c1ccc(Br)cc1C=NCCN1CCOCC1", "test": "DPPH radical scavenging", "conditions": "120 µM", "endpoint": "inhibition", "value": "36.6%"}
{"SMILES": "COc1ccc(NC(=O)c2ccc3[nH]c(-c4ccc(N(C)C)cc4)nc3c2)cn1", "system": "CT26, BALB/c mice, subcutaneous syngeneic graft", "conditions": "dose not given, day 2", "endpoint": "tumour volume", "value": "43.4 mm3 and 147 mm3 and 59.8 mm3 and 42.4 mm3 and 62.5 mm3"}
{"SMILES": "COc1cnc2cccc(N3CCc4c(cc(Cn5ccnc5)cc4-c4cn(C)nc4C(F)(F)F)C3=O)c2c1", "system": "BALB/c nude mice, MV4-11 xenograft", "conditions": "intraperitoneal, 50 mg/kg, day 21", "endpoint": "tumour volume", "value": "205 mm3 and 131 mm3 and 275 mm3 and 116 mm3 and 150 mm3"}
{"SMILES": "COCC1CN(C2CCN(c3cc(OC)c(Nc4ncc(Br)c(Nc5ccc6c(c5P(C)(C)=O)OCCO6)n4)cc3C)CC2)C1", "test": "RECIST 1.1", "system": "advanced EGFR-mutant NSCLC patients", "conditions": "240 mg once daily", "endpoint": "not evaluable patients", "value": "0%"}
{"SMILES": "COC1OC(C)C(OC2OC(C)C(OS(=O)(=O)O)C(OC3OC(C)C(OS(=O)(=O)O)C(OS(=O)(=O)O)C3O)C2O)C(OS(=O)(=O)O)C1O (stereo not drawn)", "system": "human plasma", "conditions": "128 µg/mL", "endpoint": "activated partial thromboplastin time", "value": "34 ± 0.6 s"}
{"SMILES": "CN1CCCNC(=O)c2cccc(c2)C(=O)NCCCN(C)CCCNc2cccc3c2C(=O)c2cccc(c2C3=O)NCCC1", "system": "SAS xenograft, KSN/Slc nude mice", "conditions": "dose not given, 144 h (day 6), group mean", "endpoint": "tumour volume", "value": "202 mm3"}
{"SMILES": "CC(CCC(=O)NCc1ccc(C(=O)NO)cc1)C1CCC2C3C(O)CC4CC(O)CCC4(C)C3CCC12C (stereo not drawn)", "test": "measured: GUDCA", "system": "PCK rat (Pkhd1 mutant), portal blood", "conditions": "oral gavage, dose not given, 5 months", "how to read": "relative to: total bile acids", "endpoint": "relative abundance", "value": "1.72%"}
{"SMILES": "COC1OC(C)C(OC2OC(C)C(OS(=O)(=O)O)C(OC3OC(C)C(OC4OC(C)C(OS(=O)(=O)O)C(OC5OC(C)C(OS(=O)(=O)O)C(OS(=O)(=O)O)C5OS(=O)(=O)O)C4OS(=O)(=O)O)C(OS(=O)(=O)O)C3OS(=O)(=O)O)C2OS(=O)(=O)O)C(OS(=O)(=O)O)C1OS(=O)(=O)O (stereo not drawn)", "system": "human plasma", "conditions": "64 µg/mL", "endpoint": "activated partial thromboplastin time", "value": "80.4 s and 82.5 s and 81.1 s"}
{"SMILES": "Nc1nc2cc(CC[C@H]3C[C@@H](n4ccc5c(N)ncnc54)[C@H](O)[C@@H]3O)ccc2cc1Br", "system": "NCI-H520 xenograft, mouse", "conditions": "1.0 mg/kg/day, day 27", "endpoint": "%ΔTGI", "value": "60.7%"}
{"SMILES": "COC1OC(C)C(OC2OC(C)C(OS(=O)(=O)O)C(OC3OC(C)C(OC4OC(C)C(OS(=O)(=O)O)C(OC5OC(C)C(OC6OC(C)C(OS(=O)(=O)O)C(OC7OC(C)C(OC8OC(C)C(OS(=O)(=O)O)C(OC9OC(C)C(OS(=O)(=O)O)C(OS(=O)(=O)O)C9O)C8O)C(OS(=O)(=O)O)C7O)C6O)C(OS(=O)(=O)O)C5O)C4O)C(OS(=O)(=O)O)C3O)C2O)C(OS(=O)(=O)O)C1O (stereo not drawn)", "system": "human plasma", "conditions": "128 µg/mL", "endpoint": "activated partial thromboplastin time", "value": "41.5 ± 0.3 s"}
{"SMILES": "COc1ccc(C(=O)CCc2cc(C(CCc3ccc(O)cc3OC)c3ccc(O)cc3)c(O)cc2OC)cc1 (racemic)", "system": "human blood", "conditions": "10 µM, together with: A23187", "endpoint": "TXB2 level", "value": "1010 ± 349 pg/mL"}
{"SMILES": "COC1OC(C)C(OC2OC(C)C(O)C(OC3OC(C)C(OC4OC(C)C(O)C(OC5OC(C)C(OC6OC(C)C(O)C(OC7OC(C)C(OC8OC(C)C(O)C(OC9OC(C)C(OC%10OC(C)C(O)C(OC%11OC(C)C(O)C(OS(=O)(=O)O)C%11OS(=O)(=O)O)C%10OS(=O)(=O)O)C(OS(=O)(=O)O)C9OS(=O)(=O)O)C8OS(=O)(=O)O)C(OS(=O)(=O)O)C7OS(=O)(=O)O)C6OS(=O)(=O)O)C(OS(=O)(=O)O)C5OS(=O)(=O)O)C4OS(=O)(=O)O)C(OS(=O)(=O)O)C3OS(=O)(=O)O)C2OS(=O)(=O)O)C(OS(=O)(=O)O)C1OS(=O)(=O)O (stereo not drawn)", "system": "human plasma", "conditions": "16 µg/mL", "endpoint": "activated partial thromboplastin time", "value": "52.4 s and 53.6 s and 53.5 s"}
{"SMILES": "Cc1ccc(N(O)/N=N/c2ccc(S(=O)(=O)Nc3nccs3)cc2)cc1", "test": "ABTS scavenging", "conditions": "120 µg/mL", "endpoint": "inhibition", "value": "55%"}
{"note": "Some of these lines once more:"}
{"SMILES": "COC1OC(C)C(OC2OC(C)C(OS(=O)(=O)O)C(OC3OC(C)C(OC4OC(C)C(OS(=O)(=O)O)C(OC5OC(C)C(OC6OC(C)C(OS(=O)(=O)O)C(OC7OC(C)C(OC8OC(C)C(OS(=O)(=O)O)C(OC9OC(C)C(OS(=O)(=O)O)C(OS(=O)(=O)O)C9O)C8O)C(OS(=O)(=O)O)C7O)C6O)C(OS(=O)(=O)O)C5O)C4O)C(OS(=O)(=O)O)C3O)C2O)C(OS(=O)(=O)O)C1O (stereo not drawn)", "system": "human plasma", "conditions": "128 µg/mL", "endpoint": "activated partial thromboplastin time", "value": "41.5 ± 0.3 s"}
{"SMILES": "COc1ccc(C(=O)CCc2cc(C(CCc3ccc(O)cc3OC)c3ccc(O)cc3)c(O)cc2OC)cc1 (racemic)", "system": "human blood", "conditions": "10 µM, together with: A23187", "endpoint": "TXB2 level", "value": "1010 ± 349 pg/mL"}
{"SMILES": "COC1OC(C)C(OC2OC(C)C(O)C(OC3OC(C)C(OC4OC(C)C(O)C(OC5OC(C)C(OC6OC(C)C(O)C(OC7OC(C)C(OC8OC(C)C(O)C(OC9OC(C)C(OC%10OC(C)C(O)C(OC%11OC(C)C(O)C(OS(=O)(=O)O)C%11OS(=O)(=O)O)C%10OS(=O)(=O)O)C(OS(=O)(=O)O)C9OS(=O)(=O)O)C8OS(=O)(=O)O)C(OS(=O)(=O)O)C7OS(=O)(=O)O)C6OS(=O)(=O)O)C(OS(=O)(=O)O)C5OS(=O)(=O)O)C4OS(=O)(=O)O)C(OS(=O)(=O)O)C3OS(=O)(=O)O)C2OS(=O)(=O)O)C(OS(=O)(=O)O)C1OS(=O)(=O)O (stereo not drawn)", "system": "human plasma", "conditions": "16 µg/mL", "endpoint": "activated partial thromboplastin time", "value": "52.4 s and 53.6 s and 53.5 s"}
{"SMILES": "Cc1ccc(N(O)/N=N/c2ccc(S(=O)(=O)Nc3nccs3)cc2)cc1", "test": "ABTS scavenging", "conditions": "120 µg/mL", "endpoint": "inhibition", "value": "55%"}
